Assay results of several laboratories.
Lines come from different studies, so protocols differ. ± gives the spread as reported.

CSCC[C@H](NC(=O)[C@H](CC(C)C)NC(=O)[C@H](Cc1c[nH]cn1)NC(=O)CNC(=O)[C@@H](NC(=O)[C@H](C)NC(=O)[C@H](Cc1c[nH]c2ccccc12)NC(=O)[C@H](CCC(N)=O)NC(=O)[C@H](CC(N)=O)NC(=O)CNC(=O)[C@H](Cc1ccc(O)cc1)NC(=O)[C@H](CCCNC(=N)N)NC(=O)[C@H](CCC(N)=O)NC(=O)[C@@H]1CCCN1C(=O)CN1CCN(CC(=O)O)CCN(CC(=O)O)CCN(CC(=O)O)CC1)C(C)C)C(N)=O [indium-111 labelled] — tissue uptake (Swiss nu/nu mouse, male, PC-3 tumour xenograft, colon; intravenous, 10 pmol, 4 h): 1.8 ± 0.7 %ID/g
CSCC[C@H](NC(=O)[C@H](CC(C)C)NC(=O)[C@H](Cc1c[nH]cn1)NC(=O)CNC(=O)[C@@H](NC(=O)[C@H](C)NC(=O)[C@H](Cc1c[nH]c2ccccc12)NC(=O)[C@H](CCC(N)=O)NC(=O)CCCCCNC(=O)CNC(=O)CNC(=O)CNC(=O)CSC(C)=O)C(C)C)C(N)=O [technetium-99m labelled] — tissue uptake (Swiss mouse, kidney; intravenous, 18.5 MBq, 5 min): 1.81 ± 0.06 %ID/g
N=C(N)NCCC[C@@H]1NC(=O)[C@H](CC(=O)NC23CNCCNCC(N)(CNCCNC2)CNCCNC3)NC(=O)[C@@H](Cc2ccccc2)NC(=O)[C@H](CC(=O)O)NC(=O)CNC1=O [copper-64 labelled] — tissue uptake (Nu/Nu mouse, male, tumour-bearing, bone; intravenous, 10 µCi, 24 h): 0.29 ± 0.07 %ID/g
CCCC[C@H](NC(=O)CNC(=O)CNC(=O)CNC(=O)c1ccc(NN)nc1)C(=O)N[C@H]1CC(=O)NCCCC[C@@H](C(N)=O)NC(=O)[C@H](Cc2c[nH]c3ccccc23)NC(=O)[C@H](CCCNC(=N)N)NC(=O)[C@@H](Cc2ccccc2)NC(=O)[C@H](Cc2c[nH]cn2)NC1=O [technetium-99m labelled] — tissue uptake (C57 mouse, B16/F1 melanoma, urine; intravenous, 0.037 MBq, 2 h): 93.9 ± 1.47 %ID
CCCC[C@H](NC(=O)CNC(=O)CNC(=O)c1ccc(NN)nc1)C(=O)N[C@H]1CC(=O)NCCCC[C@@H](C(N)=O)NC(=O)[C@H](Cc2c[nH]c3ccccc23)NC(=O)[C@H](CCCNC(=N)N)NC(=O)[C@@H](Cc2ccccc2)NC(=O)[C@H](Cc2c[nH]cn2)NC1=O [technetium-99m labelled] — tissue uptake (C57 mouse, B16/F1 melanoma-bearing, spleen; intravenous, 24 h): 0.05 ± 0.03 %ID/g
CCCC[C@H](NC(=O)CCCCCCCNC(=O)c1ccc(NN)nc1)C(=O)N[C@H]1CC(=O)NCCCC[C@@H](C(N)=O)NC(=O)[C@H](Cc2c[nH]c3ccccc23)NC(=O)[C@H](CCCNC(=N)N)NC(=O)[C@@H](Cc2ccccc2)NC(=O)[C@H](Cc2c[nH]cn2)NC1=O [technetium-99m labelled] — tissue uptake (C57 mouse, B16/F1 melanoma, bone; 2 h, added: L-lysine 12 mg co-injected): 0.33 ± 0.3 %ID/g
N=C(N)NCCC[C@H](NC(=O)[C@H](CCCCN)NC(=O)[C@H](CCC(N)=O)NC(=O)CCOCCOCCOCCNC(=O)CN1CCN(CC(=O)O)CCN(CC(=O)O)CCN(CC(=O)O)CC1)C(=O)N[C@@H](CCCCN)C(=O)N[C@@H](CCCNC(=N)N)C(=O)N[C@@H](CCCCN)C(=O)N[C@@H](CCCCN)C(=O)N[C@@H](CO)C(=O)N[C@@H](CCCNC(=N)N)C(=O)N[C@@H](Cc1ccc(O)cc1)C(=O)N[C@@H](CCCCN)C(=O)N[C@@H](CO)C(=O)O [copper-64 labelled] — tissue uptake (C57BL/6 Jms mouse, male, B16-F10 melanoma, urinary bladder; intravenous, 60 min): 14.6 ± 5.81 %ID/g
N=C(N)NCCC[C@@H]1NC(=O)[C@H](CCCCNC(=O)CCOCCOCCOCCOCCNC(=O)CC[C@H](NC(=O)CCOCCOCCOCCOCCNC(=O)CC[C@H](NC(=O)CN2CCN(CC(=O)O)CCN(CC(=O)O)CCN(CC(=O)O)CC2)C(=O)NCCOCCOCCOCCOCCC(=O)N[C@@H](CCC(=O)NCCOCCOCCOCCOCCC(=O)NCCCC[C@@H]2NC(=O)[C@@H](Cc3ccccc3)NC(=O)[C@H](CC(=O)O)NC(=O)CNC(=O)[C@H](CCCNC(=N)N)NC2=O)C(=O)NCCOCCOCCOCCOCCC(=O)NCCCC[C@@H]2NC(=O)[C@@H](Cc3ccccc3)NC(=O)[C@H](CC(=O)O)NC(=O)CNC(=O)[C@H](CCCNC(=N)N)NC2=O)C(=O)NCCOCCOCCOCCOCCC(=O)NCCCC[C@@H]2NC(=O)[C@@H](Cc3ccccc3)NC(=O)[C@H](CC(=O)O)NC(=O)CNC(=O)[C@H](CCCNC(=N)N)NC2=O)NC(=O)[C@@H](Cc2ccccc2)NC(=O)[C@H](CC(=O)O)NC(=O)CNC1=O [indium-111 labelled] — tissue uptake (athymic nude mouse U-87 MG xenograft, eyes; intravenous, 1 h, added: RGD2 co-injected 14 mg/kg): 0.1 %ID/g
CCCC[C@H](NC(=O)CNC(=O)[C@H](CO)NC(=O)CNC(=O)c1ccc(NN)nc1)C(=O)N[C@H]1CC(=O)NCCCC[C@@H](C(N)=O)NC(=O)[C@H](Cc2c[nH]c3ccccc23)NC(=O)[C@H](CCCNC(=N)N)NC(=O)[C@@H](Cc2ccccc2)NC(=O)[C@H](Cc2c[nH]cn2)NC1=O [technetium-99m labelled] — tissue uptake (C57 mouse, B16/F1 melanoma, blood; intravenous, 0.037 MBq, 2 h): 0.08 ± 0.06 %ID/g
N=C(N)NCCC[C@@H]1NC(=O)[C@H](CCCCNC(=O)CNC(=O)CNC(=O)CNC(=O)CC[C@H](NC(=O)CNC(=O)CNC(=O)CNC(=O)c2ccc(NN=Cc3ccccc3S(=O)(=O)O)nc2)C(=O)NCC(=O)NCC(=O)NCC(=O)NCCCC[C@@H]2NC(=O)[C@@H](Cc3ccccc3)NC(=O)[C@H](CC(=O)O)NC(=O)CNC(=O)[C@H](CCCNC(=N)N)NC2=O)NC(=O)[C@@H](Cc2ccccc2)NC(=O)[C@H](CC(=O)O)NC(=O)CNC1=O [technetium-99m labelled] — tissue uptake (athymic nu/nu mouse, female, MDA-MB-435 xenograft, kidney; intravenous, 120 min): 8.01 ± 0.68 %ID/g
CCCC[C@H](NC(=O)[C@H](Cc1cccs1)NC(=O)[C@H](Cc1c[nH]cn1)NC(=O)CCNC(=O)[C@@H](NC(=O)[C@H](C)NC(=O)[C@H](Cc1c[nH]c2ccccc12)NC(=O)[C@H](CCC(N)=O)NC(=O)[C@H](Cc1cccs1)NC(=O)CN1CCC(NC(=O)CN(CCN(CCN(CC(=O)O)CC(=O)O)CC(=O)O)CC(=O)O)CC1)C(C)C)C(N)=O [indium-111 labelled] — tissue uptake (Swiss nu/nu mouse, male, PC-3 tumour xenograft, tumour; intravenous, 10 pmol, 4 h): 0.7 ± 0.2 %ID/g
N=C(N)NCCC[C@@H]1NC(=O)[C@H](CCCCNC(=O)CNC(=O)CNC(=O)CNC(=O)c2ccc(NN=Cc3ccccc3S(=O)(=O)O)nc2)NC(=O)[C@@H](Cc2ccccc2)NC(=O)[C@H](CC(=O)O)NC(=O)CNC1=O [technetium-99m labelled] — tissue uptake (athymic nu/nu mouse, female, U-87 MG glioma xenograft, muscle; intravenous, 30 min): 1.89 ± 0.42 %ID/g
N=C(N)NCCC[C@@H]1NC(=O)[C@H](CCCCNC(=O)CCOCCOCCOCCOCCNC(=O)CC[C@H](NC(=O)[C@H](CCCCNC(=O)c2ccc(NN)nc2)NC(=O)c2ccc(NN)nc2)C(=O)NCCOCCOCCOCCOCCC(=O)NCCCC[C@@H]2NC(=O)[C@@H](Cc3ccccc3)NC(=O)[C@H](CC(=O)O)NC(=O)CNC(=O)[C@H](CCCNC(=N)N)NC2=O)NC(=O)[C@@H](Cc2ccccc2)NC(=O)[C@H](CC(=O)O)NC(=O)CNC1=O [technetium-99m labelled] — tissue uptake (athymic nude mouse, female, U-87 MG xenograft, tumor; intravenous, 0.1 MBq, 1 h): 9.74 ± 1.65 %ID/g

Some of these lines once more:
N=C(N)NCCC[C@H](NC(=O)[C@H](CCCCN)NC(=O)[C@H](CCC(N)=O)NC(=O)CCOCCOCCOCCNC(=O)CN1CCN(CC(=O)O)CCN(CC(=O)O)CCN(CC(=O)O)CC1)C(=O)N[C@@H](CCCCN)C(=O)N[C@@H](CCCNC(=N)N)C(=O)N[C@@H](CCCCN)C(=O)N[C@@H](CCCCN)C(=O)N[C@@H](CO)C(=O)N[C@@H](CCCNC(=N)N)C(=O)N[C@@H](Cc1ccc(O)cc1)C(=O)N[C@@H](CCCCN)C(=O)N[C@@H](CO)C(=O)O [copper-64 labelled] — tissue uptake (C57BL/6 Jms mouse, male, B16-F10 melanoma, urinary bladder; intravenous, 60 min): 14.6 ± 5.81 %ID/g
CSCC[C@H](NC(=O)[C@H](CC(C)C)NC(=O)[C@H](Cc1c[nH]cn1)NC(=O)CNC(=O)[C@@H](NC(=O)[C@H](C)NC(=O)[C@H](Cc1c[nH]c2ccccc12)NC(=O)[C@H](CCC(N)=O)NC(=O)[C@H](CC(N)=O)NC(=O)CNC(=O)[C@H](Cc1ccc(O)cc1)NC(=O)[C@H](CCCNC(=N)N)NC(=O)[C@H](CCC(N)=O)NC(=O)[C@@H]1CCCN1C(=O)CN1CCN(CC(=O)O)CCN(CC(=O)O)CCN(CC(=O)O)CC1)C(C)C)C(N)=O [indium-111 labelled] — tissue uptake (Swiss nu/nu mouse, male, PC-3 tumour xenograft, colon; intravenous, 10 pmol, 4 h): 1.8 ± 0.7 %ID/g
